Published values pooled from the literature.
Lines come from different studies, so protocols differ. Changes are numbered by the printed parent chain. ± marks the error that the study gave.
Cdca7: Cdca7 241-382 (Mus musculus, UniProt Q9D0M2)
UniProt Q9D0M2, sequence (whole entry, unmodified, looked up): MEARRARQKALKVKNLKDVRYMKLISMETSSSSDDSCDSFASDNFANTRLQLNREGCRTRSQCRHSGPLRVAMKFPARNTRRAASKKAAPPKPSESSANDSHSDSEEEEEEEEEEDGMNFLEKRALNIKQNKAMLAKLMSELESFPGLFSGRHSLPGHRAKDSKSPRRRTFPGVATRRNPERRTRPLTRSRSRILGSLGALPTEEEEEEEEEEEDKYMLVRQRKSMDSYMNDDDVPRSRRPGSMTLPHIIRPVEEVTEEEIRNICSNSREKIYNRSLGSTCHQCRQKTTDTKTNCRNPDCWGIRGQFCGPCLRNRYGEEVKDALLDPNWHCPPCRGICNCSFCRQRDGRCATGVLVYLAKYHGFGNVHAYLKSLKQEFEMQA
P1: ITGA2 cytoplasmic domain peptide (Homo sapiens); WKLGFFKRKYEKM; partner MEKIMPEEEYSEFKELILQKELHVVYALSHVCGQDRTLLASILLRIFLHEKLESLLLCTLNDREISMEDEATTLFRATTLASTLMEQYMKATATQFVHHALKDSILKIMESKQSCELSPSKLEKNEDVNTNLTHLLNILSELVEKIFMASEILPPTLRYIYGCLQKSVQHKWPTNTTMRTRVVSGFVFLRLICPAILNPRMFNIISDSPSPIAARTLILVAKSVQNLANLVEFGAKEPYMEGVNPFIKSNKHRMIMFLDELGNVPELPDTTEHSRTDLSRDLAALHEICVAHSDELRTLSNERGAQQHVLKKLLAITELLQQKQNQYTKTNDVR
P2: PRDX1 residues 1-199; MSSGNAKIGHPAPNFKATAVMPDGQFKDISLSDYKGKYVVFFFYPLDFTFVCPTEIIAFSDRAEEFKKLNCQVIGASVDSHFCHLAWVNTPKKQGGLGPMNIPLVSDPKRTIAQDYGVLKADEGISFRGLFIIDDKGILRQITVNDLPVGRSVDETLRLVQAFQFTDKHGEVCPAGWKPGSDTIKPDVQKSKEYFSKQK
P3: PRDX1 (Homo sapiens); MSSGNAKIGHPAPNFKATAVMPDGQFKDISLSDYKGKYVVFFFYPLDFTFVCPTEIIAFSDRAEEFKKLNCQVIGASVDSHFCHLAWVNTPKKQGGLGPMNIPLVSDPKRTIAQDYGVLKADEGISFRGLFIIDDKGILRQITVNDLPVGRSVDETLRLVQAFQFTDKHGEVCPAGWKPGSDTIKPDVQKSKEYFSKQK
UniProt O94992, sequence (whole entry, unmodified, looked up): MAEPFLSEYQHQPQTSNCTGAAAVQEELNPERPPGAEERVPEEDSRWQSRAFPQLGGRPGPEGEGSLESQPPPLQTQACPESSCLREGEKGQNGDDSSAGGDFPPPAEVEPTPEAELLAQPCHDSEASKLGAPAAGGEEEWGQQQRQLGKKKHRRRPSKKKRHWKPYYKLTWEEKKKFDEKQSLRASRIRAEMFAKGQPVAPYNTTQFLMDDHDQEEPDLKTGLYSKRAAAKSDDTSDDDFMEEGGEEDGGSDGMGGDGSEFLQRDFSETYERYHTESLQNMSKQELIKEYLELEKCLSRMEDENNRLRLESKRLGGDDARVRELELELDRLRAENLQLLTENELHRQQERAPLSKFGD
UniProt Q01130, sequence (whole entry, looked up): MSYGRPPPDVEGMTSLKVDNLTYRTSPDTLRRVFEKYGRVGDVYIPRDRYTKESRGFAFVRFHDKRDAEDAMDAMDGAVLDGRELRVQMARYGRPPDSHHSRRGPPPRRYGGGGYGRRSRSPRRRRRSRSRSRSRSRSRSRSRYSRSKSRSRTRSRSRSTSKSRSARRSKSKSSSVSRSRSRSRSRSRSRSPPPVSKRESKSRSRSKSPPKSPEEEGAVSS
UniProt P00441, sequence (whole entry, looked up): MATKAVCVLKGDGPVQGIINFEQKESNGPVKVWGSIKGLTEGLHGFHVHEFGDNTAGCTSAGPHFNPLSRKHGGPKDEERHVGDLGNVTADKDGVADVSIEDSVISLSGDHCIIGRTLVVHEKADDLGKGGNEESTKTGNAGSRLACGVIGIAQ
UniProt Q16637, sequence (whole entry, looked up): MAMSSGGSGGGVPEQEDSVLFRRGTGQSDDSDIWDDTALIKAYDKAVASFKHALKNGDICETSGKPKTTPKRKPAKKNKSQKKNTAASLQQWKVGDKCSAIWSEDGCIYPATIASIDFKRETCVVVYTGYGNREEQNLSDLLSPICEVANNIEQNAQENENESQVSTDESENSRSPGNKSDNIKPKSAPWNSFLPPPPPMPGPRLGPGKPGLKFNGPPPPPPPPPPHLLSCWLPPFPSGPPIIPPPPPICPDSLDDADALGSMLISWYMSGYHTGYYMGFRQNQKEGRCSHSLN
UniProt P19525, sequence (whole entry, unmodified, looked up): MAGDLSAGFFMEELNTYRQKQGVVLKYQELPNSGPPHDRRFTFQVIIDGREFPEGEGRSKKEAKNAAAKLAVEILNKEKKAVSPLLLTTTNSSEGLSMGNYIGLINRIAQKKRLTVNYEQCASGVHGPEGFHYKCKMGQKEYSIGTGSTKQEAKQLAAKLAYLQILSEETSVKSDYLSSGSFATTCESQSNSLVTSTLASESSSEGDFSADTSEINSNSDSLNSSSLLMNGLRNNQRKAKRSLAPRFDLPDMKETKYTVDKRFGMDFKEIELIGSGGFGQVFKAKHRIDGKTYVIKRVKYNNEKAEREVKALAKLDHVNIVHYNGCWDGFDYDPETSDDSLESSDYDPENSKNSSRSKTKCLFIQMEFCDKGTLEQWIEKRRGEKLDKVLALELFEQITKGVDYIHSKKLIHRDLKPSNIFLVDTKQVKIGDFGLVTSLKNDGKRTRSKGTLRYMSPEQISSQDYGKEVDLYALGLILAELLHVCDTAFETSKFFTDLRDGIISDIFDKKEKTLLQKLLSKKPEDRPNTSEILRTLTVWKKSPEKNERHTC

GAAACGGGACGGCACCUCUUUUAACCCUUGAAGUCACUGCCCGUUUCGAGAGUUUCUCAACUCGAAUAACUAAAGCCAACGUGAACUUUUGCGGAUCUCCAGGAUCCGCUUUUUUUU (structured RNA)  binding (hfq full length assumed Y25W (Escherichia coli, UniProt P0A6X3); tryptophan fluorescence quenching; folded RNA): binds
AAAAAAAAAAAA (dsDNA 12 bp duplex)  binding (SOD1 2-154 (Homo sapiens, UniProt P00441); EMSA; double-stranded DNA, one strand shown): no binding
ACTAGTCGAACCGTTTGCGTCGC (ssDNA)  binding (Cdca7; EMSA; single-stranded DNA): no binding
P1 L3A G4A  relative binding (RASA1 GAP domain 714-1047 (Homo sapiens); fluorescence polarisation; reference: unchanged protein, higher = more binding): 7
TGTGATAGCGTGATTTATCGCGCTGCGTTAGGTGTATAGCAG (ssDNA)  binding (traI 1-299 Y18F/Y19F/Y26F/Y27F (Escherichia coli, UniProt Q9X4G2); fluorescence anisotropy; single-stranded DNA; no added metal): binds
DNA 1 TGGCCAAAAAAGCATTGCTTATCAATTTGTTGCACC / DNA 2 TGGTGCAACAAATTGATAAGCAATGCTTTTTTGGCC (dsDNA; 5' T overhangs)  binding (IHF alpha/IHF beta K84A (Escherichia coli); FRET, laser T-jump; double-stranded DNA; KCl 100 mM): binds
CTTTTTTTTATAACCGACATTACAAGTCTC (dsDNA)  binding (Ethylene Responsive Factor ERF2 (Pyrus ussuriensis, UniProt A0A4D5XF43); EMSA; double-stranded DNA, one strand shown; added: unlabeled competitor): binds
RNA 1 GGAGGAUGUUAAUUGGCGUG / RNA 2 CACGCCAAUUAACAUCCUCC (dsRNA)  binding (EIF2AK2 1-185 F131W (Homo sapiens, UniProt P19525); tryptophan fluorescence anisotropy; double-stranded RNA): binds
CGAGGAACATGTCCCAACATGTTGCTCGAG (dsDNA)  binding (TP53 fragment (Homo sapiens); EMSA; double-stranded DNA, one strand shown): binds
GGGCUCACCACGCACGUGCGGGCUUGCUCGUGGGGUUGGCCCUCACCACGGCAAGCU (structured RNA)  binding (Survival motor neuron protein 1-294 (Homo sapiens, UniProt Q16637); competition; folded RNA; almost no effect): binds
P1 F5A F6A  relative binding (RASA1 GAP domain 714-1047 (Homo sapiens); fluorescence polarisation; reference: unchanged protein, higher = more binding): 29
RNA 1 GGAGGAUGUUAAUUGGCGUGUCUUGUCUGCAACGGUAUUC / RNA 2 GAAUACCGUUGCAGACAAGACACGCCAAUUAACAUCCUCC (dsRNA)  binding (EIF2AK2 1-185 F41W/Q110A (Homo sapiens, UniProt P19525); tryptophan fluorescence anisotropy; double-stranded RNA; 1 µM): binds
UGGAGCCUUCCACCCCGGCACUCAUGACGGUCUGCCUGAAAACCAGCCCGCUGGUGGGGCAGUCCCGAGGACCUGGCGUGCAUCCCCGCCGGAGGAAGGUCCA (structured RNA)  Kd (Sbp2 full length assumed (Drosophila melanogaster, UniProt Q9VSH1); EMSA; folded RNA): 220 ± 50 nM
P2 D47A  IP/Input (DOK3 fragment; pull-down; read off a plot, added: SAB 50 µmol/L; higher = more binding): 1 IP/Input
AGGGGGCCGUGGGGUGGGAGCUGGGG (G-quadruplex RNA; G4)  binding (ILF3 1-894 (Homo sapiens, UniProt Q12906); EMSA; folded RNA; 100 nM): binds
GGCGAUCUGGCUGCGACAUCUGUCACCCCAUUGAUCGCC (ssRNA; hairpin)  binding (HEXIM1 full length assumed K152I/H153L/R154A/R155A (Homo sapiens, UniProt O94992); EMSA; folded RNA): no binding
AGGCGAGUAGGGUAUGCUG (ssRNA)  binding (SRSF2 full length assumed (Homo sapiens, UniProt Q01130); UV cross-linking; RNA, S100; 400 nM): binds
CGATGCCTGTCGGTGAGACCGTTTGCATC (ssDNA)  binding (Cdca7; EMSA; single-stranded DNA): no binding
CTGACCTCATCATCTCCCTACACACTGACACTTACAATGTGGTCAGTT (dsDNA)  Kd (protein holo K126Q/K129Q (Bacillus clausii, UniProt A0A268NVG2); fluorescence titration; double-stranded DNA, one strand shown; Mg2+ 5 mM, apparent, Hill fit, added: PLP): 61.3 ± 3 nM
CAACGCCCTGTCGGTGAGAAACCGTTTGCA (DNA; hairpin)  binding (Cdca7 241-382 R285H (Mus musculus, UniProt Q9D0M2); EMSA; folded DNA): no binding
P3 F48A  IP/Input (DOK3; co-IP; HEK-293T; without SAB, read off a plot; higher = more binding): 0.52 IP/Input

For quick reference, copied from above:
DNA 1 TGGCCAAAAAAGCATTGCTTATCAATTTGTTGCACC / DNA 2 TGGTGCAACAAATTGATAAGCAATGCTTTTTTGGCC (dsDNA; 5' T overhangs)  binding (IHF alpha/IHF beta K84A (Escherichia coli); FRET, laser T-jump; double-stranded DNA; KCl 100 mM): binds
CTTTTTTTTATAACCGACATTACAAGTCTC (dsDNA)  binding (Ethylene Responsive Factor ERF2 (Pyrus ussuriensis, UniProt A0A4D5XF43); EMSA; double-stranded DNA, one strand shown; added: unlabeled competitor): binds
RNA 1 GGAGGAUGUUAAUUGGCGUG / RNA 2 CACGCCAAUUAACAUCCUCC (dsRNA)  binding (EIF2AK2 1-185 F131W (Homo sapiens, UniProt P19525); tryptophan fluorescence anisotropy; double-stranded RNA): binds
